Published values collected from several papers.
Lines come from different studies, so protocols differ.
T1: PDHA1/PDHB 30-390 E234Q on β (Homo sapiens); chain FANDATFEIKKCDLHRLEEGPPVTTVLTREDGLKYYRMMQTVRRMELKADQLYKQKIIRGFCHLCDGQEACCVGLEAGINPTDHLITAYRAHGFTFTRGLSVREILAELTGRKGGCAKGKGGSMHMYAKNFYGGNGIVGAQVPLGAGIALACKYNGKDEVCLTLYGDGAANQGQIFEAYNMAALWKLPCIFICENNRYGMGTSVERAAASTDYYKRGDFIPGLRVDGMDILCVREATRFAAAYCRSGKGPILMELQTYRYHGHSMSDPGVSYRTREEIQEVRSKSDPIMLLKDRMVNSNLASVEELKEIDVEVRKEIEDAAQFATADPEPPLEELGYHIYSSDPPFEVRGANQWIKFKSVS; chain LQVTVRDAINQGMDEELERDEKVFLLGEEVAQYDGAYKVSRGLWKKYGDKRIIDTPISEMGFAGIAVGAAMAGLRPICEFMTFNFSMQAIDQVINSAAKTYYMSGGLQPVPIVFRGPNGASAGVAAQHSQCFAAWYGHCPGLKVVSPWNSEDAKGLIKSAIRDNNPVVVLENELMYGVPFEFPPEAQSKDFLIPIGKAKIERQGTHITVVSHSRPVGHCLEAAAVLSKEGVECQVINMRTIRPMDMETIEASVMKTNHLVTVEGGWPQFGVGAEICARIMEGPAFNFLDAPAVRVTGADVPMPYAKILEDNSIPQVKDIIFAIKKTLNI
B1: kaiB (Synechococcus elongatus, UniProt Q79PF5); chain MSPRKTYILKLYVAGNTPNSVRALKTLKNILEVEFQGVYALKVIDVLKNPQLAEEDKILATPTLAKVLPLPVRRIIGDLSDREKVLIGLDLLYGELQDSDDF
B2: DNAJB11 (Homo sapiens, UniProt Q9UBS4); chain GRDFYKILGVPRSASIKDIKKAYRKLALQLHPDRNPDDPQAQEKFQDLGAAYEVLSDSEKRKQYDTYGEEGLKDGHQSSHGDIFSHFFGDFGFMFGGTPRQQDRNIPRGSDIIVDLEVTLEEVYAGNFVEVVRNKPVARQAPGKRKCNCRQEMRTTQLGPGRFQMTQEVVCDECPNVKLVNEERTLEVEIEPGVRDGMEYPFIGEGEPHVDGEPGDLRFRIKVVKHPIFERRGDDLYTNVTISLVESLVGFEMDITHLDGHKVHISRDKITRPGAKLWKKGEGLPNFDNNNIKGSLIITFDVDFPKEQLTEEAREGIKQLLKQGSVQKVYNGLQGY
B3: DLAT 214-416 (Homo sapiens, UniProt P10515); sequence looked up; chain SYPPHMQVLLPALSPTMTMGTVQRWEKKVGEKLSEGDLLAEIETDKATIGFEVQEEGYLAKILVPEGTRDVPLGTPLCIIVEKEADISAFADYRPTEVTDLKPQVPPPTPPPVAAVPPTPQPLAPTPSAPCPATPAGPKGRVFVSPLAKKLAVEKGIDLTQVKGTGPDGRITKKDIDSFVPSKVAPAPAAVVPPTGPGMAPVP
B4: loqs (Drosophila melanogaster, UniProt Q9VJY9-4); sequence looked up; chain MDQENFHGSSLPQQLQNLHIQPQQASPNPVQTGFAPRRHYNNLVGLGNGNAVSGSPVKGAPLGQRHVKLKKEKISAQVAQLSQPGQLQLSDVGDPALAGGSGLQGGVGLMGVILPSDEALKFVSETDANGLAMKTPVSILQELLSRRGITPGYELVQIEGAIHEPTFRFRVSFKDKDTPFTAMGAGRSKKEAKHAAARALIDKLIGAQLPESPSSSAGPSVTGLTVAGSGGDGNANATGGGDASDKTVGNPIGWLQEMCMQRRWPPPSYETETEVGLPHERLFTIACSILNYREMGKGKSKKIAKRLAAHRMWMRLQETPIDSGKISDSICGELEGEVSIIQDIDRYEQVSKDFEFIKI
B5: mel-26 (Caenorhabditis elegans, UniProt Q94420); sequence looked up; chain MEPRIDGGVFIGGIGNSGNEMCSNGVPALGVSSQTEIKVEKVQHTWTVKNFSHCYQEYLENFVYLQRGDEQLTWSIKIYPKGNGENNKDFVFLCLNRVINNNVKAGKIGFKSQFKLRTAENKDIEMRIHPNPSHSDYVSYIKRDVLFPQIMPRDMIIVNVEIDVAVETITTTNEPIQFEPTNSEQQLIEDYQRLFSQELLCDFAINVNGKIIRAHKAVLAARSPVFNAMLTHQDTDEAKSSMMYINDMDYDVIYEMVYYIYCGRCNKDITDMATALLIAADKYRLEELKSHCEKYLVENINIENACSLLIIGDLYSAPKLRKRAVTYILARPKNVTGTPGWEDILKGHPNLITDIFSQIDRQSSTGATSSVSNLPGVPMDIPGITGNIVPPPSGL
B6: IL10 mature N18Y/N92Q/T100D/R104W (UniProt P22301); sequence looked up; chain SPGQGTQSENSCTHFPGYLPNMLRDLRDAFSRVKTFFQMKDQLDNLLLKESLLEDFKGYLGCQALSEMIQFYLEEVMPQAENQDPDIKAHVQSLGENLKDLRLWLRRCHRFLPCENKSKAVEQVKNAFNKLQEKGIYKAMSEFDIFINYIEAYMTMKIRN
B7: fliG 116-335 (Thermotoga maritima, UniProt Q9WY63); sequence looked up; chain PVQLVNFLQSEHPQTIAVVLSYLDPPVAAQILGALPEELQTEVLKRIALLERTSPEVVKEIERNLEKKISGFVSRTFSKVGGIDTAAEIMNNLDRTTEKKIMDKLVQENPELADEIRRRMFVFEDILKLDDRSIQLVLREVDTRDLALALKGASDELKEKIFKNMSKRAAALLKDELEYMGPVRLKDVEEAQQKIINIIRRLEEAGEIVIARGGGEELIM
B8: GET2 1-106 (Saccharomyces cerevisiae, UniProt P40056); Alexa594 label; sequence looked up; chain MSELTEAEKRRLLRERRQKKFSNGGASSRLNKITGQASSHLNAESPLDAPSAAKTTPPASVHSATPDIKEDSNVAPQLDLLKQLAAMQGQGTGKSTPQDSSTPDLL
B9: Osm 24-206 (Mus musculus, UniProt P53347); chain ANRGCSNSSSQLLSQLQNQANLTGNTESLLEPYIRLQNLNTPDLRAACTQHSVAFPSEDTLRQLSKPHFLSTVYTTLDRVLYQLDALRQKFLKTPAFPKLDSARHNILGIRNNVFCMARLLNHSLEIPEPTQTDSGASRSTTTPDVFNTKIGSCGFLWGYHRFMGSVGRVFREWDDGSTRSRR
B10: CBL 25-351 (Homo sapiens, UniProt P22681); sequence looked up; chain LIGLMKDAFQPHHHHHHHLSPHPPGTVDKKMVEKCWKLMDKVVRLCQNPKLALKNSPPYILDLLPDTYQHLRTILSRYEGKMETLGENEYFRVFMENLMKKTKQTISLFKEGKERMYEENSQPRRNLTKLSLIFSHMLAELKGIFPSGLFQGDTFRITKADAAEFWRKAFGEKTIVPWKSFRQALHEVHPISSGLEAMALKSTIDLTCNDYISVFEFDIFTRLFQPWSSLLRNWNSLAVTHPGYMAFLTYDEVKARLQKFIHKPGSYIFRLSCTRLGQWAIGYVTADGNILQTIPHNKPLFQALIDGFREGFYLFPDGRNQNPDLTG
Sequence of UniProt Q00560 (whole entry, looked up): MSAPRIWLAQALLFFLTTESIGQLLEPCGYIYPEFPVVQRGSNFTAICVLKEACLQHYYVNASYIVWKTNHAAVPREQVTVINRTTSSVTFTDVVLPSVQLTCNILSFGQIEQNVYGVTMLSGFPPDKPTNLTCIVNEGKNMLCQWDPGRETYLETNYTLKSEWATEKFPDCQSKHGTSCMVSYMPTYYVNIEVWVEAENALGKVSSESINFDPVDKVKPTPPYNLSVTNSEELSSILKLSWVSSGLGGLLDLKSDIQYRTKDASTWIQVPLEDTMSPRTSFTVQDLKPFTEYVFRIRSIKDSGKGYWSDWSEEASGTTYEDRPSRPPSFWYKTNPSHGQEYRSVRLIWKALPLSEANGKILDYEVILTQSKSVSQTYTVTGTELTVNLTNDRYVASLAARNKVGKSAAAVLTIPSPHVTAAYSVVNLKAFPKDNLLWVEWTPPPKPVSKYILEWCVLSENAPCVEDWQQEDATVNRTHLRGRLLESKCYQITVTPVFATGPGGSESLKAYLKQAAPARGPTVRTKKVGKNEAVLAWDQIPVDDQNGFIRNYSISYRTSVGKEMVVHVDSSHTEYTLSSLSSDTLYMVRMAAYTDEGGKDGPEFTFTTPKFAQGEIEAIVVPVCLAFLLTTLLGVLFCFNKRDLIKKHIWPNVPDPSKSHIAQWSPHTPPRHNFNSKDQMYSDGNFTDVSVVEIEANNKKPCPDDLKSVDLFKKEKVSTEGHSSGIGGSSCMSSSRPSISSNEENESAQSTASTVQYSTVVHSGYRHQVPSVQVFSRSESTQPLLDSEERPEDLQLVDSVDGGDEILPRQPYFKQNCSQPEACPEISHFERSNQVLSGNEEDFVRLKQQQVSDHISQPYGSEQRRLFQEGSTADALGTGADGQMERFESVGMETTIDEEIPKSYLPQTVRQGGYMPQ
Sequence of UniProt Q9YGC1 (whole entry, looked up): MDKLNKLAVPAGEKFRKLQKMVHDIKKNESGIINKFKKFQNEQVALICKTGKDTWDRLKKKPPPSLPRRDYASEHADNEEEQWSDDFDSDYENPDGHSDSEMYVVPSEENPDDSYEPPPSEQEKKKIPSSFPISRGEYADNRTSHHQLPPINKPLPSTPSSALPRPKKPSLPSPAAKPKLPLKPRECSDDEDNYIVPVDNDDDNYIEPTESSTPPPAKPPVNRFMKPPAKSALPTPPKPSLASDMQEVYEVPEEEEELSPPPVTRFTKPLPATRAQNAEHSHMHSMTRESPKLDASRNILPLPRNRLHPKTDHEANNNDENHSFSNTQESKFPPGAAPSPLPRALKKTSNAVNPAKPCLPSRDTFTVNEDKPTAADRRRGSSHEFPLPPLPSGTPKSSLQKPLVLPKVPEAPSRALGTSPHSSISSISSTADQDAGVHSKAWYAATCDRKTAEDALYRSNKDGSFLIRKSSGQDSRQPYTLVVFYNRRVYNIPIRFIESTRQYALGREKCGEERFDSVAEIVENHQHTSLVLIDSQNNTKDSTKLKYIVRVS
Sequence of UniProt P11217 (whole entry, looked up): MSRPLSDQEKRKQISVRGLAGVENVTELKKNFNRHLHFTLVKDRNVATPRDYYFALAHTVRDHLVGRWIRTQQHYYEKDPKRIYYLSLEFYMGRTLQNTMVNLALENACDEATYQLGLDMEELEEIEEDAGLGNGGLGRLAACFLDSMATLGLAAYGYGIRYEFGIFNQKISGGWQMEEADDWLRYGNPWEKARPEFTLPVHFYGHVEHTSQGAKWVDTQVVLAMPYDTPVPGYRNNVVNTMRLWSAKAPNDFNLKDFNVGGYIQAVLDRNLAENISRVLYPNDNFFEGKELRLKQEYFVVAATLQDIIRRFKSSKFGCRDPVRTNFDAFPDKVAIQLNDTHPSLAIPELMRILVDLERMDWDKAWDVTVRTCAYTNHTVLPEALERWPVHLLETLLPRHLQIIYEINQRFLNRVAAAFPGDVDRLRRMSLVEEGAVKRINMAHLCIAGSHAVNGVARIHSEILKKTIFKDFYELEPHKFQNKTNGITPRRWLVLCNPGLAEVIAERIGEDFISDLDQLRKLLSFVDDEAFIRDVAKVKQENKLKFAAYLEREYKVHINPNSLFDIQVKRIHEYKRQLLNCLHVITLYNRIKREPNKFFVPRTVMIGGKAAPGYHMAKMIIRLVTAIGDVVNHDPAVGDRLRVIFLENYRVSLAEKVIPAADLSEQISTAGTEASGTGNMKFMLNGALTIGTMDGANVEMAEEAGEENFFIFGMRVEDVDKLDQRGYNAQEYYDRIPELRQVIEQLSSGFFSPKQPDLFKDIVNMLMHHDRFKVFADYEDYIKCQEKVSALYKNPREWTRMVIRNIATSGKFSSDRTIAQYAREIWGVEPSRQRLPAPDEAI
Sequence of UniProt P11021 (whole entry, looked up): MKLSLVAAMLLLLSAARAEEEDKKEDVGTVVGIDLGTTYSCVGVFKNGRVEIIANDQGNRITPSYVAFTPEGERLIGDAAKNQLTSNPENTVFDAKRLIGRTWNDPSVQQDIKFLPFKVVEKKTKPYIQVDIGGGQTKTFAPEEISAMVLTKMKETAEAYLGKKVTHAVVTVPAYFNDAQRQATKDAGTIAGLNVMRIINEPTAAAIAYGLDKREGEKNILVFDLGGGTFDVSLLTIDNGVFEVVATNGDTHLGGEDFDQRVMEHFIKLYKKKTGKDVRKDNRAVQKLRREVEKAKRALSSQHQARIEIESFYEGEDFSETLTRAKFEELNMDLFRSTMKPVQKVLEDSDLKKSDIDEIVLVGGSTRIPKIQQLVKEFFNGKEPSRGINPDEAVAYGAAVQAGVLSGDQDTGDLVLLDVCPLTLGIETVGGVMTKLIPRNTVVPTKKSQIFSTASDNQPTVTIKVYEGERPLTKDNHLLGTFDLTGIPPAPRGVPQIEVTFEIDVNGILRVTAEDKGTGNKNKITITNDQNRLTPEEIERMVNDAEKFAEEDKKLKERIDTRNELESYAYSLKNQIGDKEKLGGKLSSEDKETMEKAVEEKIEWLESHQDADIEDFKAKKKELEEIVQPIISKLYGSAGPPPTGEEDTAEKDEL
Sequence of UniProt Q08162 (whole entry, looked up): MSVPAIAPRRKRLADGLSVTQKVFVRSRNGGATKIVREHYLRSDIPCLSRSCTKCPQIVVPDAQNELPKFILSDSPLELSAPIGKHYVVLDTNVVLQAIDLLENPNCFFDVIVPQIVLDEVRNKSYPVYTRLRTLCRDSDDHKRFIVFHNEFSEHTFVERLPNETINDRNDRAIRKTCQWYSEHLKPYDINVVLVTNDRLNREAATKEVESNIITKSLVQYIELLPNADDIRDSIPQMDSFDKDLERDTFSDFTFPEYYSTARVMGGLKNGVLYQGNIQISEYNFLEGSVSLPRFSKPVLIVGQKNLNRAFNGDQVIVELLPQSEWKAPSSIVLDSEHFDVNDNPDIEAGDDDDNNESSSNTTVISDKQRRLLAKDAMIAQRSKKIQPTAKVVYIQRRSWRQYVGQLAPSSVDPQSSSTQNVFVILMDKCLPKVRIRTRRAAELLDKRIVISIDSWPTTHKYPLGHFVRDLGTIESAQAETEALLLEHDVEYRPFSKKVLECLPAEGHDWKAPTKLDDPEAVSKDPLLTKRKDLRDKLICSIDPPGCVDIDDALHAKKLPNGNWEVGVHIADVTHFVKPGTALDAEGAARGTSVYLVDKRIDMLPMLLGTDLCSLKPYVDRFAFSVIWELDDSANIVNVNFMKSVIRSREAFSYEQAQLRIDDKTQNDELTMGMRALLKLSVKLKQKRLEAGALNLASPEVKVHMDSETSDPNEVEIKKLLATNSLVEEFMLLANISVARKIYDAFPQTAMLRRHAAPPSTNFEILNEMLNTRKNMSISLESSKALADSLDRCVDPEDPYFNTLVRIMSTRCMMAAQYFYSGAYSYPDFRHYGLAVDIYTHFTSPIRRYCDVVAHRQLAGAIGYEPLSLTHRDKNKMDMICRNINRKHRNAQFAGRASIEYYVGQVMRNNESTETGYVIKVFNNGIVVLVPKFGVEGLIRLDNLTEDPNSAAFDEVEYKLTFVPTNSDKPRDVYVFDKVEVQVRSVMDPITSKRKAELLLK
Sequence of UniProt O43791 (whole entry, looked up): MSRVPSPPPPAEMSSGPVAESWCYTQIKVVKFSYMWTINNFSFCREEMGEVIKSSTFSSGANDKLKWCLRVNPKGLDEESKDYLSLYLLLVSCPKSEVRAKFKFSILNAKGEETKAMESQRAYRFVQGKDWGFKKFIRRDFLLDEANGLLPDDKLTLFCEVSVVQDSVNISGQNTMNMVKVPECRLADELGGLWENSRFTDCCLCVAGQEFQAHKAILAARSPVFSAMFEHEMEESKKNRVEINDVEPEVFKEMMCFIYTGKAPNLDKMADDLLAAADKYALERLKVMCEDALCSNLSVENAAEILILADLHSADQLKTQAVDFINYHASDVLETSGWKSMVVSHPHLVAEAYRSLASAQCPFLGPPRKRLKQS
Sequence of UniProt Q08334 (whole entry, unmodified, looked up): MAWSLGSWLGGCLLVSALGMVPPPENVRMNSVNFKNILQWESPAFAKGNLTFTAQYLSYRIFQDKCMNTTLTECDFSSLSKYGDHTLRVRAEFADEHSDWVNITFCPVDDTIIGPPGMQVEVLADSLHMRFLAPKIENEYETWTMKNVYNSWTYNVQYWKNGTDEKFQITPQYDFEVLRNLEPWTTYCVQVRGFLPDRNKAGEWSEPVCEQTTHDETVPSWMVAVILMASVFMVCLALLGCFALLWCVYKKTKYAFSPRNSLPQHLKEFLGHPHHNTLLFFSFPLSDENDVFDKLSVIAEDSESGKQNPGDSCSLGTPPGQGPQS
Sequence of UniProt Q9WZE6 (whole entry, unmodified, looked up): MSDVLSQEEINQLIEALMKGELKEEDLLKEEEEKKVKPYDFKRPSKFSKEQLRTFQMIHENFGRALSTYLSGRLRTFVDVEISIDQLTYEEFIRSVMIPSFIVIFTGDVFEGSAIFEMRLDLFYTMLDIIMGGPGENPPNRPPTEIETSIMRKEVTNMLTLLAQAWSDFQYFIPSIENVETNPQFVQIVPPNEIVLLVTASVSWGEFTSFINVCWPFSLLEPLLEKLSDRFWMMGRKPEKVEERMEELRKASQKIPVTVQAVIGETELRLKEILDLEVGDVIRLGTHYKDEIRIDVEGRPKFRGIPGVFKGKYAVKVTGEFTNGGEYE

| Substance | target or system | assay | system | conditions | measurement | value |
| --- | --- | --- | --- | --- | --- | --- |
| B1 (kaiB) | kaiC S431T/T432V (Synechococcus elongatus, UniProt Q79PF4) | native gel | – | – | binding | binds |
| B2 (DNAJB11) | HSP90B1 K467A (Homo sapiens, UniProt P14625) | pull-down | – | – | binding | binds |
| B3 (DLAT 214-416) | T1, PDHA1/PDHB 30-390 E234Q on β (Homo sapiens) | SPR | – | – | binding | binds |
| B4 (loqs) | DCR-2 (Drosophila melanogaster, UniProt A1ZAW0) | single-molecule TIRF | – | pH 8.0, KCl 100 mM, together with: Cy5-labeled dsRNA 100 pM | binding | binds |
| B5 (mel-26) | mei-1/mei-2 S92D, phosphorylated by MBK-2 (Caenorhabditis elegans) | dot blot | – | 4 °C, native | binding | binds |
| DIS3 (Saccharomyces cerevisiae, UniProt Q08162) | SKI6/RRP45/RRP42/MTR3/RRP46/RRP43/CSL4/RRP4/RRP40 Exo9 core (Saccharomyces cerevisiae) | SEC | – | – | binding | binds |
| PYGM (Homo sapiens, UniProt P11217) | PHKA1, phosphorylated incl. pS1018 (Homo sapiens, UniProt P46020) | cross-linking | – | – | binding | binds |
| B6 | IL10RB 20-220 N49Q/N68Q/N102Q/N161Q (Homo sapiens, UniProt Q08334) | SEC | – | – | binding | binds |
| B7 (fliG 116-335) | fliM 1-249 S167C, MTSSL spin label at C167 (Thermotoga maritima, UniProt Q9WZE6) | DEER | – | – | binding | binds |
| B8 (GET2 1-106) | GET3 D57N, Alexa488 label (Saccharomyces cerevisiae, UniProt Q12154) | FRET | – | together with: nucleotides | binding | binds |
| UGT1A9 (Homo sapiens, UniProt O60656) | O=c1c(O)c(-c2ccccc2)oc2cccc(O)c12 | steady-state kinetics | – | pH 7.4, 37 °C | Vmax/Km | 7400 µL/min/mg |
| B4 (loqs) | Dcr-2 G31R (Drosophila melanogaster, UniProt A1ZAW0) | pull-down | – | – | binding | binds |
| GHMEAVTPLTKAADISLDNLVEGKRKRRSNVSSPATPTASSSSSTTPTRKITESGW (TP53BP1 residues 1606-1656 (Homo sapiens, UniProt Q12888)) | SPOP MATH domain 28-164 (Homo sapiens, UniProt O43791) | NMR titration | – | 4 °C | binding | binds |
| B9 (Osm 24-206) | Il6st ectodomain 23-617 (Mus musculus, UniProt Q00560) | cryo-EM | – | – | binding | binds |
| MGSNKSKNKDASQRRRSLLPETG (SRC 1-18 P8N (Homo sapiens, UniProt P12931)) | SRC fragment, N-terminal TAMRA label (Homo sapiens) | pull-down | – | – | binding | binds |
| B10 (CBL 25-351) | BLNK, phosphotyrosine (Gallus gallus, UniProt Q9YGC1) | pull-down | DT40, lysate | together with: stimulation | binding | binds |
| HSPA5 (Homo sapiens, UniProt P11021) | HSP90B1 D149N (Homo sapiens, UniProt P14625) | pull-down | – | – | binding | binds |

Excerpt of the above:
| Substance | target or system | assay | system | conditions | measurement | value |
| --- | --- | --- | --- | --- | --- | --- |
| B2 (DNAJB11) | HSP90B1 K467A (Homo sapiens, UniProt P14625) | pull-down | – | – | binding | binds |
| B3 (DLAT 214-416) | T1, PDHA1/PDHB 30-390 E234Q on β (Homo sapiens) | SPR | – | – | binding | binds |
